Measurements from different studies.
Protocols differ between the studies behind these lines. ± gives the spread as reported.
CYP2D6: Cytochrome P450 2D6 (CYP2D6, Homo sapiens, UniProt P10635)
Chain of UniProt P10635 (whole entry, looked up): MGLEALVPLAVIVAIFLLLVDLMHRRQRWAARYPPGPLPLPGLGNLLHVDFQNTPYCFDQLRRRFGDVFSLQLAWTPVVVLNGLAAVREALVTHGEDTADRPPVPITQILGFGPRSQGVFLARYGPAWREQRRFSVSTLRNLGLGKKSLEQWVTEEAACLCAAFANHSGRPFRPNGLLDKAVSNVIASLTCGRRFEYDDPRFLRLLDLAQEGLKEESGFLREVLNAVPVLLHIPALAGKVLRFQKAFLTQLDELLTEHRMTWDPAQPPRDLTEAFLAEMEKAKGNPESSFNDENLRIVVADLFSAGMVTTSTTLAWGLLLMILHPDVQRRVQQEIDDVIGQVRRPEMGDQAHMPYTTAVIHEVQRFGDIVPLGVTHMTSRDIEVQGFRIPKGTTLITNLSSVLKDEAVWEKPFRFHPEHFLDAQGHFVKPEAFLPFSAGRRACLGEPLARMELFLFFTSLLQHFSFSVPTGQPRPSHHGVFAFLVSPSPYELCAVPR
USP16 ZnF-UBD domain: Ubiquitin carboxyl-terminal hydrolase 16, ZnF-UBD domain (USP16, Homo sapiens, UniProt Q9Y5T5)
Chain of UniProt Q9Y5T5 (whole entry, looked up): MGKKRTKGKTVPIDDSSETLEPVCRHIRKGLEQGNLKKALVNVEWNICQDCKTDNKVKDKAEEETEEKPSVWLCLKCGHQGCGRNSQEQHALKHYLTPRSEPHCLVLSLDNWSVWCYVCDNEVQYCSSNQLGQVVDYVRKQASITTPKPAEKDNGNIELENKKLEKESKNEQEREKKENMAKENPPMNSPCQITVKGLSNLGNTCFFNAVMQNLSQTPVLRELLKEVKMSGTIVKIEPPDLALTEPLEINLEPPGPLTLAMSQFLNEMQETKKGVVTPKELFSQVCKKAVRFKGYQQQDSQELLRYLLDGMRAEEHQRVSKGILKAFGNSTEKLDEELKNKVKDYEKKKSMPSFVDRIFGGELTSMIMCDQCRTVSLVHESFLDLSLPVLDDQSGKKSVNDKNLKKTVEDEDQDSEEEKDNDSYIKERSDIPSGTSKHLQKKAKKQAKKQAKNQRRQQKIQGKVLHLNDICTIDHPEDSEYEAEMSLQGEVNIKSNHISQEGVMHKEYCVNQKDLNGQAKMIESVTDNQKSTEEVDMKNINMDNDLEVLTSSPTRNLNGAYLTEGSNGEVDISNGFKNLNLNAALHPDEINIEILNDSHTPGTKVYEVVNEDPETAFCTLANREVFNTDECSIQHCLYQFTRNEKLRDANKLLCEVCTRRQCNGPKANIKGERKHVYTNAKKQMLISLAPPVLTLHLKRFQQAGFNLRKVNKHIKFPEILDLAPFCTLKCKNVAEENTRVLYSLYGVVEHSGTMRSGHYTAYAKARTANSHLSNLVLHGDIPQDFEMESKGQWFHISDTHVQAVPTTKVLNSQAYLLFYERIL
CYP2J2: Cytochrome P450 2J2 (CYP2J2, Homo sapiens, UniProt P51589)
Chain of UniProt P51589 (whole entry, looked up): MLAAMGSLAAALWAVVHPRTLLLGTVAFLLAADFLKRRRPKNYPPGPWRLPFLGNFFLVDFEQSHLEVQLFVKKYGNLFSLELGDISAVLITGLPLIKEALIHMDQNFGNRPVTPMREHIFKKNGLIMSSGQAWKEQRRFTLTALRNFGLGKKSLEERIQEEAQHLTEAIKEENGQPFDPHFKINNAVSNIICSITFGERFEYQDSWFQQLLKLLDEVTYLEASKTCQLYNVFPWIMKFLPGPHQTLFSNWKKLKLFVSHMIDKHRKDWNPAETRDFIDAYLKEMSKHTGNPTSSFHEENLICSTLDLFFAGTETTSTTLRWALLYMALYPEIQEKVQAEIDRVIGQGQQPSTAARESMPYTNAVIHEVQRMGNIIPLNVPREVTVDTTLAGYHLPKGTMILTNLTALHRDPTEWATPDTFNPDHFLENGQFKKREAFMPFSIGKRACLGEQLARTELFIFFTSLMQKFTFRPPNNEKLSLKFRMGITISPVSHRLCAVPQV
CSNK1A1: Casein kinase I isoform alpha (CSNK1A1, Homo sapiens, UniProt P48729)
Chain of UniProt Q16774 (whole entry, unmodified, looked up): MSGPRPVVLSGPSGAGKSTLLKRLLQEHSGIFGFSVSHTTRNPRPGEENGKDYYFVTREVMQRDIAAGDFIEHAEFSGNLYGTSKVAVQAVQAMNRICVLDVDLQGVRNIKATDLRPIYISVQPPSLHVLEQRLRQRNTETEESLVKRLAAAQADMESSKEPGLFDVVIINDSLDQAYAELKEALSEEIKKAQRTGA
Chain of UniProt P48729 (whole entry, looked up): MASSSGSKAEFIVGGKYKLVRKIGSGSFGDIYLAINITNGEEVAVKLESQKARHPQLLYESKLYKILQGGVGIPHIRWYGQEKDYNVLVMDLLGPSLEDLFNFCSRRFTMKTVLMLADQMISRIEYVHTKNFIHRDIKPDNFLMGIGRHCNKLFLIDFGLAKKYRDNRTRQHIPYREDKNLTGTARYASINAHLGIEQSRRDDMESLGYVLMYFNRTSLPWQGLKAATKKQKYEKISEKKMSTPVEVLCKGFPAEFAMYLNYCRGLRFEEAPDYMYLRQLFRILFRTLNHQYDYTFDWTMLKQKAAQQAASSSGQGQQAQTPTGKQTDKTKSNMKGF
Chain of UniProt Q6NT16 (whole entry, unmodified, looked up): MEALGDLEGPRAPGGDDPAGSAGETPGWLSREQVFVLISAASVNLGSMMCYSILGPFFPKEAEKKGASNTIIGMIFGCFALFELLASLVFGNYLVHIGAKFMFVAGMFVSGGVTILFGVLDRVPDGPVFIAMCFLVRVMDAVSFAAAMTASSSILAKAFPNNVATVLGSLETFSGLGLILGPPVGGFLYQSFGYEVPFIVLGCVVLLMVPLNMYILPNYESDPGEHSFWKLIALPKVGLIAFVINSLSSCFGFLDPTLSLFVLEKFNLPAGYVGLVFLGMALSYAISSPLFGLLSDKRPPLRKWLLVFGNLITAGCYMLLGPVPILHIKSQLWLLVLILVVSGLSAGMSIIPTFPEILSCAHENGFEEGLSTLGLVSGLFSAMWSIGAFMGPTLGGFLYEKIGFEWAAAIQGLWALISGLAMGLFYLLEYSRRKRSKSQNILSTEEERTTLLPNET
Chain of UniProt Q9NZC2 (whole entry, looked up): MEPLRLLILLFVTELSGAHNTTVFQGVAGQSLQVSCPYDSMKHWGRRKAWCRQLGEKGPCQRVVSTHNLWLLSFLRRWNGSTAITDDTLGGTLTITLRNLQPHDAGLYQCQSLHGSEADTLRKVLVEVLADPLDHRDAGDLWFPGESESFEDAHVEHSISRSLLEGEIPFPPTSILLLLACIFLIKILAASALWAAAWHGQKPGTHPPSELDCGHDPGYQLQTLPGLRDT
Chain of UniProt Q9BQ39 (whole entry, unmodified, looked up): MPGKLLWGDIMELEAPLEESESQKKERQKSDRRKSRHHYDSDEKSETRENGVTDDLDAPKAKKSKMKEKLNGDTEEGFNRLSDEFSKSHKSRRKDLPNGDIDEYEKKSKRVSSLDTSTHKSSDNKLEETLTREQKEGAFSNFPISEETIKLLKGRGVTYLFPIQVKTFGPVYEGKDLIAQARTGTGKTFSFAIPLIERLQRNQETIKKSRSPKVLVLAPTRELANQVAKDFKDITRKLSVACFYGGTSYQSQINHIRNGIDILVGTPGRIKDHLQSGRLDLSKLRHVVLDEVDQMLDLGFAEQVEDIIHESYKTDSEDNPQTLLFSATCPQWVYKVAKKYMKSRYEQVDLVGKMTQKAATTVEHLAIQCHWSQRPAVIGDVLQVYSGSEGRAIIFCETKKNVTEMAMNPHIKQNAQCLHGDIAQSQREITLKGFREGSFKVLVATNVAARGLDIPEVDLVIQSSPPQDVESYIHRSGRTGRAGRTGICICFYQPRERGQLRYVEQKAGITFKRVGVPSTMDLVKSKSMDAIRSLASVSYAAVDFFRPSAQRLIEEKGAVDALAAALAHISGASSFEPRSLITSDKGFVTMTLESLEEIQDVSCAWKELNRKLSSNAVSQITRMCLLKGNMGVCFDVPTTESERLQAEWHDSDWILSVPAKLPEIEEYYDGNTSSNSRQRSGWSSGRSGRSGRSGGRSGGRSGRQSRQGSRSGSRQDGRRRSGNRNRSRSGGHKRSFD
Chain of UniProt P23280 (whole entry, looked up): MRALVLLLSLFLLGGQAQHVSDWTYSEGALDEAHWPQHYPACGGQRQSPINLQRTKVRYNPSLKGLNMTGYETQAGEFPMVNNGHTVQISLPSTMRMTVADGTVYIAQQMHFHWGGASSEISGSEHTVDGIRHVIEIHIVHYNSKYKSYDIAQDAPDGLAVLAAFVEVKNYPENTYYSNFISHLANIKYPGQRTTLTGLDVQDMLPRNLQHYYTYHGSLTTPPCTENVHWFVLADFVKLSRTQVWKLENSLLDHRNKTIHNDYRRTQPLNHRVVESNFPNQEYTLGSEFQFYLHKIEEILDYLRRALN
Chain of UniProt Q96C86 (whole entry, unmodified, looked up): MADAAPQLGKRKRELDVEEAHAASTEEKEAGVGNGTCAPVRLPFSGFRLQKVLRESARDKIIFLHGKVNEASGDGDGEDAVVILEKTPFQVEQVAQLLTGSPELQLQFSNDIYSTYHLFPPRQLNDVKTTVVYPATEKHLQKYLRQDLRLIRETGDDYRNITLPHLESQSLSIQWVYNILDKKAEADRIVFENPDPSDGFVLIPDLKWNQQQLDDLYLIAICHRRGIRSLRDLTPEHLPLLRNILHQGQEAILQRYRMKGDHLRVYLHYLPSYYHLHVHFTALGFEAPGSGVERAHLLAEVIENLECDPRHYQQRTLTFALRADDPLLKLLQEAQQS
Chain of UniProt Q92769 (whole entry, looked up): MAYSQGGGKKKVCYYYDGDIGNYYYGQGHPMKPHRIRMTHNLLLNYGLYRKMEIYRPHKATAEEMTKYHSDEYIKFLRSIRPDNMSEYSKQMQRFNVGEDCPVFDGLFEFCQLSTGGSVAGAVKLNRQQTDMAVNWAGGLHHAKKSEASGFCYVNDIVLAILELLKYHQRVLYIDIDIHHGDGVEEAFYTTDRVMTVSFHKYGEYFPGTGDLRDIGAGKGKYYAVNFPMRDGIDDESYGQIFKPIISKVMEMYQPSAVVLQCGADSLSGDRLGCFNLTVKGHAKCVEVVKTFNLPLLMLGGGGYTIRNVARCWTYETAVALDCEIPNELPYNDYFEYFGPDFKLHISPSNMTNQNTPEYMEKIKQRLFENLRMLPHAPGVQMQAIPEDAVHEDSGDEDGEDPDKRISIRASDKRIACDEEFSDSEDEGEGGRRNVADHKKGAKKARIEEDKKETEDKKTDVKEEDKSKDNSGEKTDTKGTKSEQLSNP

O=C(Cn1ccnc1)c1ccc(Cl)cc1Cl — Kd (CYP2D6; binding; 20 min, pH 7.4, purified protein, 2% DMSO): 13.6 µM
Cc1ccc(C(=O)O)cc1S(=O)(=O)Nc1cccc(C(=O)CCC(=O)O)c1 — Kd (USP16 ZnF-UBD domain): 114 µM
C=C1CCN([C@H](C)[C@](O)(Cn2cncn2)c2ccc(F)cc2F)CC1 — Kd (CYP2D6; binding; 20 min, pH 7.4, purified protein, 2% DMSO): 28.2 µM
COc1cccc2c1C(=O)c1c(O)c3c(c(O)c1C2=O)C[C@@](O)(C(C)=O)C[C@@H]3O[C@H]1C[C@H](N)[C@H](O)[C@H](C)O1 — Kd (CYP2J2; 2 min, pH 7.4): 9.56 ± 1.01 µM
COC(=O)c1ccc(N)cc1Cl — Kd (CSNK1A1; binding, surface plasmon resonance; up to 50 µM): no binding
COc1cnc2cccc(N3CCc4c(cc(Cn5ccnc5C)cc4-c4cn(C)nc4C(F)(F)F)C3=O)c2c1 — EC50 (HEC108; cell growth; 120 h): > 30 µM
Cc1ccc(S(=O)(=O)OC[C@H]2CO[C@](Cn3ccnc3)(c3ccc(Cl)cc3Cl)O2)cc1 — Kd (CYP2D6; binding; 20 min, pH 7.4, purified protein, 2% DMSO): 3.36 µM
Cc1cc(Nc2ccc(S(F)(F)(F)(F)F)cc2)n2nc(C(C)(F)F)nc2n1 — patients with QTcF above threshold (Plasmodium vivax; 12-lead Holter ECG; human malaria patients; oral, 800 mg, QTc above 500 ms): 0%
CN1C2CCCC1CC(NC(=O)c1nn(C)c3ccccc13)C2 (centres unmarked) — Kd (Soluble acetylcholine receptor (Aplysia californica, UniProt Q8WSF8); homologous competition SPA; with: [3H]compound): 1.18 ± 0.015 µM
C=Cn1ccnc1 — Kd (CYP2D6; binding; 20 min, pH 7.4, purified protein, 2% DMSO): 186 µM
CCCCOc1ccc(CC(=O)NO)cc1 — Kd (HDAC2 (Homo sapiens, UniProt Q92769); inhibitor, competition pulldown; SW620 and MV4-11 lysate; 1 h): > 30.2 µM
NCCCNCCCCNCCCN — Kd (MFS-type transporter SLC18B1 (SLC18B1, Homo sapiens, UniProt Q6NT16); binder): 19.1 µM
Nc1ncnc2c1ncn2[C@@H]1O[C@H](COP(=O)(O)OP(=O)(O)O)[C@@H](O)[C@H]1O — Kd (GUK1 (Homo sapiens, UniProt Q16774, N171A); binding, ITC; 25 °C, with: GMP): > 200 µM
Nc1ncnc2c1ncn2[C@@H]1O[C@H](COP(=O)(O)CP(=O)(O)OP(=O)(O)O)[C@@H](O)[C@H]1O — calcium influx (P2X purinoceptor 1 (P2RX1, Homo sapiens, UniProt P51575, M214A); calcium influx; 10 µM; relative to: ionomycin response): 100%
Nc1ncnc2c1ncn2[C@@H]1O[C@H](CSCC[C@H](N)C(=O)O)[C@@H](O)[C@H]1O — Kd (O-methyltransferase (Sorghum bicolor, UniProt A0A1B6PFV1); ITC; 25 °C, apo enzyme): 25.5 ± 7.91 µM
NS(=O)(=O)c1ccc(NCC(=O)O)cc1 — Kd (USP16 ZnF-UBD domain): 428 µM
CC(C)[C@H](NC(=O)[C@H](Cc1ccc(O)cc1)NC(=O)[C@H](Cc1ccc(O)cc1)NC(=O)[C@@H]1CCCN1C(=O)[C@H](CCC(=O)O)NC(=O)[C@H](CCC(=O)O)NC(=O)[C@H](Cc1c[nH]c2ccccc12)NC(=O)[C@@H]1CCCN1C(=O)[C@@H](NC(=O)[C@H](CCC(N)=O)NC(=O)c1ccc2c(c1)C(=O)OC21c2ccc(O)cc2Oc2cc(O)ccc21)C(C)C)C(=O)N[C@H](C(=O)N[C@@H](CCCCN)C(=O)N[C@@H](CCCCN)C(=O)N[C@@H](CO)C(=O)N[C@@H](CO)C(=O)NCC(=O)NCC(N)=O)C(C)C — plasma concentration (human, plasma; intravenous infusion, 400 mg, 0.08333 h): 6750 ng/mL
C=C1CC(C(=O)Nc2cc(C(=O)NC)cc(-c3csc(C(=O)OC)c3)c2OC)C1 — Kd (Triggering receptor expressed on myeloid cells 2 (Homo sapiens, UniProt Q9NZC2); binding): 218 µM
Nc1nc(-c2ccc(Cl)c(S(N)(=O)=O)c2)cs1 — Kd (CA6 (Homo sapiens, UniProt P23280); binding, thermal shift; pH 7.0, 25 °C): 0.25 µM
O=C(O)CCc1ccno1 — Kd (USP16 ZnF-UBD domain): > 1000 µM
OC[C@H]1OC(O)[C@H](O)[C@@H](O)[C@@H]1O (some centres unmarked) — Kd (ATP-dependent RNA helicase DDX50 (DDX50, Homo sapiens, UniProt Q9BQ39, K187R); microscale thermophoresis; PBST; 25 °C): 12.1 ± 8.3 µM
O=C(O)CCc1nc2ccccc2c2nc(Cc3ccccc3)nn12 — Kd (USP16 ZnF-UBD domain): 285 µM
CC[C@H](C)[C@H](NC(=O)[C@H](CC(C)C)NC(=O)[C@H](Cc1ccc(OP(=O)(O)O)cc1)NC(=O)[C@H](CCC(=O)O)NC(=O)[C@H](CC(=O)O)NC(=O)[C@H](C)NC(=O)[C@H](CC(=O)O)NC(=O)[C@@H](NC(=O)[C@@H](NC(=O)[C@H](CC(=O)O)NC(=O)[C@H](CC(=O)O)NC(=O)[C@H](CCSC)NC(=O)c1ccc2c(c1)C(=O)OC21c2ccc(N(C)C)cc2Oc2cc(N(C)C)ccc21)C(C)C)C(C)C)C(=O)N1CCC[C@H]1C(=O)N[C@@H](CCC(N)=O)C(=O)N[C@@H](CCC(N)=O)C(=O)NCC(=O)N[C@@H](Cc1ccccc1)C(=O)N[C@@H](CC(=O)O)C(=O)O — Kd (SH2/SH3 adapter protein NCK1, SH2 domain (NCK1, Homo sapiens, UniProt P16333); binding): 1 µM
Cc1c(-c2ccc(N3CCc4cccc(C(=O)Nc5nc6ccccc6s5)c4C3)nc2C(=O)O)cnn1CC12CC3(C)CC(C)(C1)CC(OCCNCC[C@H](O)CO)(C3)C2 — dP/dt at 50 change (beagle dog, male, anaesthetised; intravenous infusion, 0.3 mg/kg/min, 90 min; relative to: vehicle): -30%
Nc1ncnc2c1ncn2[C@@H]1O[C@H](COP(=O)(O)OP(=O)(O)OP(=O)(O)O)[C@@H](O)[C@H]1O — Kd (ATP-dependent RNA helicase DDX50 (DDX50, Homo sapiens, UniProt Q9BQ39); microscale thermophoresis; PBST; 25 °C, compound-binding domain, no glucose): 1.6 ± 0.46 µM
[N-]=[N+]=NCC1OC(OC2C(N)CC(N)C(OC3OC(CN)C(O)C(O)C3O)C2O)C(O)C(N)C1O (centres unmarked) — Kd (DM1 CUG repeat RNA (12 copies); binding, fluorescence; 1 h, room temperature): 0.92 ± 0.067 µM
COc1cc2c(cc1OC)[C@H]1C[C@@H](O)[C@H](CC(C)C)CN1CC2 — Kd (MFS-type transporter SLC18B1 (SLC18B1, Homo sapiens, UniProt Q6NT16, F144A); binder; radiolabeled protein variants): 92.8 µM
CCCCCCCCCCCCCC(=O)O — Kd (uncharacterized protein (Kocuria marina, UniProt A0A0B0D9P4); heme spectral shift, substrate, UV-visible spectral titration): 7.32 µM
CCCCC(=O)OCC(=O)[C@]1(O)Cc2c(O)c3c(c(O)c2[C@@H](O[C@H]2C[C@H](NC(=O)C(F)(F)F)[C@H](O)[C@H](C)O2)C1)C(=O)c1c(OC)cccc1C3=O — Kd (CYP2J2; 2 min, pH 7.4): 2.51 ± 0.14 µM
OC(CCc1ccc(Cl)cc1)Cn1ccnc1 (centres unmarked) — Kd (CYP2D6; binding; 20 min, pH 7.4, purified protein, 2% DMSO): 30.9 µM
CC[N+](CC)(CC)CC — Kd (S-type K+ channel (Aplysia californica); single-channel current, open-channel blocker, inside-out patch clamp; pH 7.4, internal application, 0 mV): 42000 µM
O=C(O)CNc1ccc2nncn2n1 — Kd (USP16 ZnF-UBD domain): > 1000 µM
CC(=O)Nc1sc2c(c1-c1nc3ccccc3s1)CCN(C(C)C)C2 — Kd (CSNK1A1; binding, surface plasmon resonance; up to 50 µM): no binding
Nc1ncnc2c1ncn2[C@@H]1O[C@H](COP(=O)(O)OP(=O)(O)O)[C@@H](O)[C@H]1O — Kd (CKMT1A (Homo sapiens, UniProt P12532, E265Q); microscale thermophoresis; pH 8.5, E227Q mutant, no substrate): 1 ± 0.8 µM
O=O — Kd (IDO1 (Homo sapiens, UniProt P14902)): 2.6 ± 1.2 µM
CC(C)(COP(=O)(O)OP(=O)(O)OC[C@H]1O[C@@H](n2cnc3c(N)ncnc32)[C@H](O)[C@@H]1OP(=O)(O)O)[C@@H](O)C(=O)NCCC(=O)NCCS — Kd (N-alpha-acetyltransferase 35, NatC auxiliary subunit (NAA35, Homo sapiens, UniProt Q5VZE5); competitor, competition MS pulldown; SW-620 cell lysate; with: photo-immobilized beads): 1.73 µM
NCCCNC(=O)[C@H](Cc1ccccc1)NC(=O)[C@@H]1CCCN1C(=O)[C@@H](N)C/C=C/C[C@H](N)C(=O)N1CCC[C@H]1C(=O)N[C@@H](Cc1ccccc1)C(=O)NCCCN — Kd (HIV-1 frameshift RNA stem-loop; binding, SPR): no binding
Cn1cc(-c2ccc(-c3cncc(Cl)c3N3CCC4(CCNC4=O)CC3)cc2)cn1 — log2 fold change (COLO 205; gene expression, microarray, measured: CCRL2 mRNA; concentration not given, 6 h; relative to: untreated cells): 2.86
C#Cc1c(F)ccc2cc(O)cc(-c3ncc4c(N5CC6CCC(C5)N6)nc(OC[C@@]56CCCN5C[C@H](F)C6)nc4c3F)c12 — Kd (Ras-related protein R-Ras2, GDP-bound (RRAS2, Homo sapiens, UniProt P62070); binding, surface plasmon resonance): > 30 µM
Cc1ccc(C(=O)Cn2c3c(sc2=N)CCCC3)cc1 — Kd (Ethylene receptor 1 (ETR1, Arabidopsis thaliana, UniProt P49333); binding): 7.85 µM
O=C(O)Cn1ccc2ccccc2c1=O — Kd (USP16 ZnF-UBD domain): > 1000 µM
CC(C)C[C@H](NC(=O)C[C@H](O)[C@H](CC(C)C)NC(=O)[C@H](Cc1c[nH]cn1)NC(=O)CNC(=O)[C@@H](NC(=O)[C@H](C)NC(=O)[C@H](Cc1c[nH]c2ccccc12)NC(=O)[C@H](CCC(N)=O)NC(=O)[C@@H](Cc1ccccc1)NC(=O)COCCOCCNC(=O)CCC(C(=O)O)N1CCN(CC(=O)O)CCN(CC(=O)O)CCN(CC(=O)O)CC1)C(C)C)C(N)=O (some centres unmarked) [lutetium-177 labelled] — tissue uptake (BALB/c nu/nu mice, blood; intravenous, 750 pmol, 1 h, with: PA 300 µg): 0.4 ± 0.1 %ID/g
Nc1nc2c(ncn2[C@@H]2O[C@H](COP(=O)(O)O)[C@@H](O)[C@H]2O)c(=O)[nH]1 — Kd (GUK1 (Homo sapiens, UniProt Q16774, S37A); binding, ITC; 25 °C, with: GMP): > 500 µM
CNCCOC12CC3(C)CC(C)(CC(Cn4ncc(-c5ccc(N6CCc7cccc(C(=O)Nc8nc9ccccc9s8)c7C6)nc5C(=O)O)c4C)(C3)C1)C2 — mean arterial pressure change (beagle dog, male, anaesthetised; intravenous bolus, 0.03 mg/kg, 30 min; relative to: baseline): -3%
C[n+]1cn([C@@H]2O[C@H](COP(=O)(O)CP(=O)(O)OP(=O)(O)OC[C@H]3O[C@@H](n4cnc5c(=O)[nH]c(N)nc54)[C@H](O)[C@@H]3O)[C@@H](O)[C@H]2O)c2nc(N)[nH]c(=O)c21 — Kd (m7GpppX diphosphatase, WT/mutant heterodimer (DCPS, Homo sapiens, UniProt Q96C86); binding, Trp fluorescence quenching; 10% glycerol; 20 °C): 0.00737 µM
OC(Cn1ccnc1)c1ccc(Cl)cc1Cl (centres unmarked) — Kd (CYP2D6; binding; 20 min, pH 7.4, purified protein, 2% DMSO): 14.8 µM
O=C(NO)c1cnc(NC2(c3ccccc3)CC2)nc1 — Kd (HDAC8 (Homo sapiens, UniProt Q9BY41); inhibitor, competition pulldown; SW620 and MV4-11 lysate; 1 h): > 30.2 µM
CC(=O)N[C@H]1[C@@H](OP(=O)(O)OP(=O)(O)OC[C@H]2O[C@@H](n3ccc(=O)[nH]c3=O)[C@H](O)[C@@H]2O)O[C@H](CO)[C@@H](O)[C@@H]1O — Kd (mgfK (Bacillus subtilis, UniProt O06974); binding, fluorescence titration): 280 ± 40 µM
OC[C@H]1O[C@H](O[C@H]2[C@H](O)[C@@H](O)[C@H](O)O[C@@H]2CO)[C@H](O)[C@@H](O)[C@@H]1O — log2 fold change (binding, MIDAS equilibrium dialysis LC-MS; A2AR-BRIL thermostabilized; concentration not given; relative to: no-protein control): -0.0693
NC(=O)[C@H]1CCCN1C(=O)CCC(=O)O — Kd (USP16 ZnF-UBD domain): 154 µM
Nc1ncnc2c1ncn2[C@@H]1O[C@H](CO[P@](=O)(O)O[P@](=O)(O)O[P@@](=O)(O)S)[C@@H](O)[C@H]1O — Kd (GUK1 (Homo sapiens, UniProt Q16774, R133A); binding, ITC; 25 °C, with: GMP): > 400 µM
O=C(O)Cc1cccnc1 — Kd (USP16 ZnF-UBD domain): 96.1 µM
Fc1ccc(NC(=S)NCCCn2ccnc2)c(F)c1 — Kd (CYP2D6; binding; 20 min, pH 7.4, purified protein, 2% DMSO): 10.3 µM
